Measurements gathered from unrelated publications.
Each line is one published result; not all experiments were run side by side. Numbers after ± are the reported error. ≈ marks a conversion by molar mass, not a printed value.

Structure (SMILES) | test | system | setting | how to read | measurement | result
Cc1nc2cccc(OCC(C)(C)C(=O)NC(C)C)c2c(N)c1C(=O)O |  | male Sprague-Dawley rat, plasma | oral, 30 mg/kg |  | AUC(0-t) | 86 ng·h/mL
Cc1cccc(C)c1OCC(=O)N[C@@H](Cc1ccccc1)[C@@H](O)C[C@H](Cc1ccccc1)NC(=O)[C@H](C(C)C)N1CCCNC1=O | modified PAMPA Franz cell | phosphate buffer with HPMCAS | stock 5 mg/mL, 3 h, 25 °C, 254 nm system, 300 rpm, added: 3% BSA receiver |  | free drug permeability | 25.1 ± 3.6 ×10⁻⁶ cm/s
CCCOc1ccc([C@H]2CNC(=O)N2c2ccc3[nH]cnc3c2)cc1 |  | human, plasma | oral, 200 mg, single dose, fasted |  | AUC(0-inf) | 1350 ng·h/mL
C[C@]12CC[C@@H]3c4ccc(O)cc4CC[C@H]3[C@@H]1C[C@@H](O)[C@@H]2O | GC-MS | breast cancer women on NSAI, serum | vaginal, 0.03 mg, 4 h, day 0 |  | maximum serum concentration | 0.0675 ng/mL
COc1ccc(-c2cc(=O)c3c(OC)c(OC)c(OC)c(OC)c3o2)cc1 |  | C57BL/6 mouse, male, brain | oral, 1% w/w in diet, 6 weeks, orange peel extract diet | relative to: content in orange peel | tissue to peel content ratio | 0.015%
NCCCC[C@@H]1NC(=O)[C@@H](Cc2c[nH]c3ccccc23)NC(=O)[C@H](c2ccccc2)NC(=O)[C@@H]2C[C@@H](OC(=O)NCCN)CN2C(=O)[C@H](Cc2ccccc2)NC(=O)[C@H](Cc2ccc(OCc3ccccc3)cc2)NC1=O | radioimmunoassay | healthy human male volunteers, plasma | subcutaneous, 100 µg |  | beta half-life | 8.1 ± 1.4 h
CCCC[C@H](NC(C)=O)C(=O)N[C@H]1CCC(=O)NC[C@@H](C(=O)N[C@@H](Cc2c[nH]c3ccccc23)C(N)=O)NC(=O)[C@H](CCCNC(=N)N)NC(=O)[C@@H](Cc2ccccc2)NC(=O)[C@H](Cc2c[nH]cn2)NC1=O |  | male rat, plasma | subcutaneous, 1 mg/kg/day, multiple doses, once daily |  | AUC(0-inf) | 952 ng·h/mL
O=C(CCCCCCC(=O)Nc1ccccc1)NO |  | patients, serum | oral, 1000 mg, cycle 1 day 2, added: flavopiridol 30+30 mg/m2 |  | AUC(0-7 h) | 40.2 µM·h
Cc1ccc(C(=O)NCc2c3c(c(C)[nH]c2=O)CCCC3)cn1 | U-HPLC | 20% DMSO in water |  |  | kinetic solubility | 184 µg/mL (≈ 591 µM)
Cc1cc(Nc2cc3ncccc3c(N[C@@H]3C[C@H]4CC[C@@H](C3)N4CCC#N)n2)n[nH]1 |  | Balb/c mouse, male, colon | oral, 10 mg/kg, AUC(0-24 h) based | relative to: colon over plasma | tissue/plasma ratio | 3880
CCc1ccc(Cc2ccc3c(c2)[C@]2(OC3)O[C@H](CO)[C@@H](O)[C@H](O)[C@H]2O)cc1 |  | Wistar rat, male, small intestine | oral, dose not given, 8 h | relative to: small intestine over plasma concentration | tissue/plasma ratio | 250 ± 114
CCN(CC)CCNC(=O)c1c(C)[nH]c(/C=C2\C(=O)Nc3ccc(F)cc32)c1C |  | human, plasma | oral, 15 mg/m2, day 14 |  | maximum trough plasma concentration | 61.9 ng/mL
CC(C)=CCC[C@](C)(O[C@@H]1O[C@H](CO)[C@@H](O)[C@H](O)[C@H]1O)[C@H]1CC[C@]2(C)[C@@H]1[C@H](O)C[C@@H]1[C@@]3(C)CC[C@H](O)C(C)(C)[C@@H]3[C@@H](O[C@@H]3O[C@H](CO)[C@@H](O)[C@H](O)[C@H]3O)C[C@]12C |  | rat, extracted plasma QC samples | 0.5 µg/mL, 24 h, 15 °C, autosampler |  | post-preparative stability accuracy | 93.6 ± 6.3%
CN(CCC(=O)O)C(=O)c1ccc2c(c1)CC[C@@H]1[C@@H]2CC[C@]2(C)C(c3cncc(F)c3)=CC[C@@H]12 | item: unbound AUC(0-24) steady state | cynomolgus monkey, female | 40 mg/kg | relative to: animal over human at 60 mg BID | exposure margin | ~16 fold

Some of these lines once more:
Structure (SMILES) | test | system | setting | how to read | measurement | result
NCCCC[C@@H]1NC(=O)[C@@H](Cc2c[nH]c3ccccc23)NC(=O)[C@H](c2ccccc2)NC(=O)[C@@H]2C[C@@H](OC(=O)NCCN)CN2C(=O)[C@H](Cc2ccccc2)NC(=O)[C@H](Cc2ccc(OCc3ccccc3)cc2)NC1=O | radioimmunoassay | healthy human male volunteers, plasma | subcutaneous, 100 µg |  | beta half-life | 8.1 ± 1.4 h
